Measurements pooled from the literature.
Compare with care: the assays were run in different laboratories. Values joined by “and” are separate records of one study, mostly repeats; a detail may differ. pIC50: −log10 of the molar value.

With CO[C@@H]1[C@@H](OC(N)=O)[C@@H](O)[C@H](Oc2ccc3c(O)c(NC(=O)c4ccc(O)c(CC=C(C)C)c4)c(=O)oc3c2C)OC1(C)C the colony survival was 39.1% (DLD-1 BRCA2-/-; 75 µM, replicate B; reference: untreated).
With CNS(=O)(=O)Nc1nccc(Cc2c(C)c3ccc(Oc4ncccc4F)cc3oc2=O)c1F the pIC50 was 7.61 (NCI-H2291; cell viability; 7 days).
CC[C@@H]([C@H](C)O)n1ncn(-c2ccc(N3CCN(c4ccc(OC[C@@H]5CO[C@@](Cn6cncn6)(c6ccc(F)cc6F)C5)cc4)CC3)cc2)c1=O has a translation activity of 102% and 150% (Trypanosoma cruzi; reporter mRNA translation, inhibitor, refers to: Renilla luciferase mRNA; cell-free extract; concentration not given; reference: positive over negative control).
The fold regulation of CCN(CC)CC(=O)Nc1cccc(-n2cc(-c3ccc4ccc(-c5cn(-c6cccc(NC(=O)CN(CC)CC)c6)nn5)cc4c3)nn2)c1 is reported as -1.03 fold (RCC4; PCR array, refers to: VEGFC; 5 x IC50, 2 h, normoxia; reference: untreated).
For CCOc1cncc(-c2ccc(NC(=O)C3(c4ccnc(NS(=O)(=O)C5CC5)n4)CCOCC3)nc2)n1, the pIC50 was 7.40 (lung cancer; cell viability, CellTiter-Glo; DMSO 0.1%; 72 h, line code 1121).
CN1CCCNC(=O)c2cccc(c2)C(=O)NCCCN(C)CCCNc2cccc3c2C(=O)c2cccc(c2C3=O)NCCC1: “log2 fold change” -0.992 (SAS; RNA-Seq, refers to: SLC25A43 mRNA; 1 µM, 6 h; reference: untreated cells).
With O=C(CNc1ccc2ccccc2c1)N/N=C/c1ccc([N+](=O)[O-])o1 the translation activity was 103% and 116% and 99.6% and 98.1% (Trypanosoma cruzi; reporter mRNA translation, inhibitor, refers to: capped polyadenylated Renilla luciferase mRNA; cell-free extract; concentration not given; reference: positive over negative control).
For Cn1ncc2cc(-c3cncc(Cl)c3N3CCC4(CCNC4=O)CC3)ccc21, “log2 fold change” read 1.36 (LS174T; gene expression, microarray, refers to: CNN1 mRNA; concentration not given, 4 h; reference: untreated cells).
The pIC50 of CC(C)c1ccc(N(C)c2ccc3c(c2)OCC[C@H]3CNc2cnccc2C(=O)O)cc1 is reported as at most 5.00 (KYSE-70; cell viability, CellTiter-Glo; 7 days).
Cc1ncsc1-c1ccc(C(C)NC(=O)C2CC(O)CN2C(=O)C(NC(=O)CCCCCCCCCCN2CCCC(Nc3ncc(Cl)c(Nc4ccccc4S(=O)(=O)C(C)C)n3)C2)C(C)(C)C)cc1 (stereo not shown): “log2 fold change” -1.25 (22Rv1; RNA-seq, refers to: RHBDD1 mRNA; concentration not given; reference: DMSO).

For quick reference, copied from above:
With O=C(CNc1ccc2ccccc2c1)N/N=C/c1ccc([N+](=O)[O-])o1 the translation activity was 103% and 116% and 99.6% and 98.1% (Trypanosoma cruzi; reporter mRNA translation, inhibitor, refers to: capped polyadenylated Renilla luciferase mRNA; cell-free extract; concentration not given; reference: positive over negative control).
